Experimental data pooled from the literature.
Every numbered part comes from another study and shows a few of its results, in no order. Several values in a cell are separate wells, animals, samples, runs or records.

Series 1
SMILES: Cc1ccc(O)c(C)c1-c1cnc2[nH]c(-c3cnc(N4CCC5(CC4)CC(N4CCN(c6ccc(N[C@H]7CCC(=O)NC7=O)cc6F)CC4)CO5)nc3)cc2c1C#N (single isomer, unassigned)
tested on	assay	setting	IC50 [nM]
BRAF (Homo sapiens, UniProt P15056)	enzyme activity, inhibitor, ADP detection	–	485
HCC1569	CDK1 phosphorylation, Jess capillary immunoassay, refers to: CDK1 phospho-Thr14	24 h	9
biomarker-negative wild-type cell lines	cell growth	168 h	2120
PKMYT1 (Homo sapiens, UniProt Q99640)	enzyme activity, inhibitor	–	7.6
HCC1569	automated immunoblotting, refers to: CDK1 phospho-Thr14	24 h	19.3
biomarker-positive cells (CCNE1 amp, FBXW7 mut, PPP2R1A loss)	cell growth	168 h, average	177
SRC (Homo sapiens, UniProt P12931)	enzyme activity, inhibitor, TR-FRET	–	398
RAF1 (Homo sapiens, UniProt P04049, Y340D/Y341D)	enzyme activity, inhibitor, ADP detection	–	373

Series 2 — cell line: U-87 MG; concentration: concentration not given; relative to: DMSO
Compound: CCN1/C(=C/C=C2\CCCC(/C=C/C3=[N+](CC)c4ccccc4C3(C)C)=C2NCCCCCCCCN2CCC(Nc3nc4ccccc4n3Cc3ccc(F)cc3)CC2)C(C)(C)c2ccccc21
assay	log2 fold change
refers to: SEMA6B mRNA	-2.39
refers to: AHDC1 mRNA	-1.28
refers to: JMJD1C mRNA	1.07
refers to: IMPDH1 mRNA	-0.956
refers to: RAB39B mRNA	2.32
refers to: PAWR mRNA	1.25
refers to: NFE2L2 mRNA	0.913
refers to: GPSM2 mRNA	-1.46
refers to: PRR9 mRNA	4.25
refers to: GAN mRNA	1.39
refers to: ITGA5 mRNA	-1.2
refers to: NGEF mRNA	-1.45
refers to: TENT5C mRNA	-1.28
refers to: GPR84 mRNA	3.81
refers to: SLC16A5 mRNA	-3.77
refers to: CCDC103 mRNA	-0.973

Series 3
Compound: Cc1ncsc1-c1ccc(C(CO)NC(=O)C2CC(O)CN2C(=O)C(C(C)C)n2cc(-c3ccc(COc4c(-c5c(C)c(F)cc6[nH]ncc56)c(C5CC5)cc5c(N6CC7CC6CN7)nc(OC6CCOCC6)nc45)cc3)nn2)cc1 (stereo not shown)
system	setting	tumour volume
PK-1 xenograft, mouse	30 mg/kg once weekly, day 14	241 mm3 and 215 mm3 and 240 mm3 and 262 mm3 and 206 mm3
PK-1 xenograft, mouse	30 mg/kg twice weekly, day 4	160 mm3 and 122 mm3 and 198 mm3 and 120 mm3 and 170 mm3
GP5d xenograft, mouse	30 mg/kg twice weekly, day 11	96.9 mm3 and 177 mm3 and 149 mm3 and 109 mm3 and 112 mm3
mouse, lung LXFA sample B PDX	30 mg/kg twice weekly, day 0	166 mm3 and 54 mm3 and 62.4 mm3 and 95.5 mm3 and 160 mm3 and 64.3 mm3 and 240 mm3 and 228 mm3
KP-4 xenograft, mouse	30 mg/kg twice weekly, day 11	294 mm3 and 220 mm3 and 248 mm3 and 206 mm3 and 299 mm3
mouse, lung LXFA sample B PDX	10 mg/kg twice weekly, day 7	159 mm3 and 39 mm3 and 65.8 mm3 and 87.3 mm3 and 187 mm3 and 226 mm3 and 79.3 mm3 and 317 mm3

Series 4 — species: mice, male and female, formalin pain; route: intrathecal; together with: formalin 5%, 20 µL intraplantar; direction: higher = more pain
SMILES: COc1cc(C(=O)OCCCN2CCCN(CCCOC(=O)c3cc(OC)c(OC)c(OCc4ccc([N+](=O)[O-])cc4)c3)CC2)cc(OC)c1OC
setting	licking and flinching time
100 nmol, 20-25 min after formalin	26.3 a.u. and 36.2 a.u. and 17.6 a.u. and 99.5 a.u. and 3.38 a.u. and 112 a.u. and 10.3 a.u. and 4.33 a.u.
100 nmol, 0-5 min after formalin	144 a.u. and 176 a.u. and 153 a.u. and 148 a.u. and 184 a.u. and 192 a.u. and 146 a.u.
10 nmol, 10-45 min	314 a.u. and 158 a.u. and 245 a.u. and 133 a.u. and 214 a.u. and 184 a.u. and 166 a.u. and 261 a.u.
10 nmol, 35-40 min after formalin	16.1 a.u. and 18 a.u. and 0.94 a.u. and 3.47 a.u. and 5.11 a.u. and 6.87 a.u. and 14.4 a.u. and 71.5 a.u.
10 nmol, 0-10 min	253 a.u. and 237 a.u. and 189 a.u. and 182 a.u. and 179 a.u. and 229 a.u. and 228 a.u. and 260 a.u.
100 nmol, 10-15 min after formalin	9.49 a.u. and 4.33 a.u. and 7.9 a.u. and 21.4 a.u. and 22.3 a.u. and 6.69 a.u. and 17.1 a.u. and 36.2 a.u.
1 nmol, 0-5 min after formalin	193 a.u. and 134 a.u. and 200 a.u. and 160 a.u. and 184 a.u. and 174 a.u. and 159 a.u. and 187 a.u.

For quick reference, copied from above (series 1):
tested on	assay	setting	IC50 [nM]
HCC1569	automated immunoblotting, refers to: CDK1 phospho-Thr14	24 h	19.3
PKMYT1 (Homo sapiens, UniProt Q99640)	enzyme activity, inhibitor	–	7.6
SRC (Homo sapiens, UniProt P12931)	enzyme activity, inhibitor, TR-FRET	–	398
biomarker-positive cells (CCNE1 amp, FBXW7 mut, PPP2R1A loss)	cell growth	168 h, average	177
biomarker-negative wild-type cell lines	cell growth	168 h	2120
HCC1569	CDK1 phosphorylation, Jess capillary immunoassay, refers to: CDK1 phospho-Thr14	24 h	9
